Results collected from several papers.
Parts stem from different laboratories: compare values within a part only. Positions count from the first letter of the parent shown.
UniProt P38919, sequence (whole entry, looked up): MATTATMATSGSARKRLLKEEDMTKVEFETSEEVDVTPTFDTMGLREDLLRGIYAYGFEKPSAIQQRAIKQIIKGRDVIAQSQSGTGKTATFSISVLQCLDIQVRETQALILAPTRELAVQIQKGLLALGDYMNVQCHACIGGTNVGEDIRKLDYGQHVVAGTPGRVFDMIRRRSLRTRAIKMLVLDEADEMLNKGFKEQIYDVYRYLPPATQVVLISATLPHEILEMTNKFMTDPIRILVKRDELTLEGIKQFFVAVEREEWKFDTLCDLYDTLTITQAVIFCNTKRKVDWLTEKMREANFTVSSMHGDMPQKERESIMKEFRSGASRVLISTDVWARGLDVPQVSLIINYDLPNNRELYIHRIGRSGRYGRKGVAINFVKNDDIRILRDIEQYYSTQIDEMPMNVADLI

Series 1
Target: CCND3, cyclin fold, Cln2 fusion (human)
Technique: yeast growth competition, sequencing
Medium: yeast
Setting: weak parent motif
Reference: not given
Direction: higher = stronger binding
Starting sequence: viral docking peptide; TSVRRALFTGGSD; partner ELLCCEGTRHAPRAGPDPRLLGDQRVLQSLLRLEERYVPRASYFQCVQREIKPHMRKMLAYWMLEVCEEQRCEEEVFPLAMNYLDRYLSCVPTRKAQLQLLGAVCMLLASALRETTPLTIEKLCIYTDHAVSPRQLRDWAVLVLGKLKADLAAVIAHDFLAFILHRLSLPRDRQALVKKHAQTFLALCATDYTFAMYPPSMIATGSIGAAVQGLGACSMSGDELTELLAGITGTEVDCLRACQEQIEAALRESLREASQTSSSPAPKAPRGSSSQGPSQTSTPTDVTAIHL
For `R4A`, “normalised enrichment score” read 0.0437.
For `R5L`, “normalised enrichment score” read -0.239.
`R5C` — result for “normalised enrichment score”: -0.0296.
`G10S` — result for “normalised enrichment score”: 0.205.
Under “normalised enrichment score”, `S2L` is recorded as 0.387.
`G11R` — result for “normalised enrichment score”: -0.00431.
`L7Q`: “normalised enrichment score” -0.255.
Under “normalised enrichment score”, `F8M` is recorded as 0.142.

Series 2
Target: tungstate, free oxyanion
Technique: microfluidic competitive inhibition
Medium: in vitro, cell-free expressed
Tested at: not given
Setting: derived from inhibition constants, unchanged parent 2230 nM
Direction: lower = stronger binding
Starting sequence: PafA, mature enzyme, eGFP fusion (Elizabethkingia meningoseptica, UniProt Q9KJX5); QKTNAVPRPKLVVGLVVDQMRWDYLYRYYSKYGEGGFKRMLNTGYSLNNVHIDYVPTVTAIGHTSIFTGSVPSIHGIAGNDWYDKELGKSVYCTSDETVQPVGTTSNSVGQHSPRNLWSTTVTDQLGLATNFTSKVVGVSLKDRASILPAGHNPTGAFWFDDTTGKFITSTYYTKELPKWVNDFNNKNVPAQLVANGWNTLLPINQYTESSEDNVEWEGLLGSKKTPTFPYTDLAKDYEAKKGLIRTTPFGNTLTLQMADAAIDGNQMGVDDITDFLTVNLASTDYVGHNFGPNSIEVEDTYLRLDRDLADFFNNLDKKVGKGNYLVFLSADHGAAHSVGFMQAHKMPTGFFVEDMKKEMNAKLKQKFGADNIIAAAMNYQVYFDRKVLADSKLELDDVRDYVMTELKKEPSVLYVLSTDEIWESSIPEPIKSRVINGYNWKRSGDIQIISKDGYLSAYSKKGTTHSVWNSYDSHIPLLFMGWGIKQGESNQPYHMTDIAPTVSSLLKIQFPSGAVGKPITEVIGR
For `W118V`, “oxyanion analog dissociation constant” read 1.68 µM.
`P114G` — result for “oxyanion analog dissociation constant”: 1.12 µM.
`R434V`: “oxyanion analog dissociation constant” 1.04 µM.
Under “oxyanion analog dissociation constant”, `T121V` is recorded as 1.01 µM.
`G482A`: “oxyanion analog dissociation constant” 2.71 µM.
`I509V`: “oxyanion analog dissociation constant” 1.91 µM.
Under “oxyanion analog dissociation constant”, `L281G` is recorded as 1.53 µM.
`Y28G`: “oxyanion analog dissociation constant” 1.1 µM.

Mixed results
C#C[C@]1(O)CC[C@H]2[C@@H]3CCC4=CC(=O)CC[C@]4(C)[C@H]3CC[C@@]21C has an infection rate of 88% (Plasmodium berghei; inhibitor; Huh-7, liver stage; 10 µM, 24 h; reference: untreated control).
With CC(C)(O)c1cncc(-c2nc3ccc(F)cc3n2C2CC2)c1 the remaining binding was 100% (CDPK1 (Plasmodium falciparum, UniProt P62344); cell-free assay, competition with immobilised ligand; 1 µM).
The infection rate of CC[C@@H](CO)NC(=O)[C@@H]1C=C2c3cccc4[nH]cc(c34)C[C@H]2N(C)C1 is reported as 88.3% (Plasmodium berghei; inhibitor; Huh-7, liver stage; 10 µM, 24 h; reference: untreated control).
COC(=O)[C@H]1[C@H](c2ccccc2)[C@]2(c3ccc(OC)cc3)Oc3cc(OC)cc(OC)c3[C@@]1(O)C2O (some centres unmarked): “fluorescence polarization change” -1.9 mP (Eukaryotic initiation factor 4A-III (Homo sapiens, UniProt P38919); RNA clamping, fluorescence polarization; concentration not given, mean of two replicates, added: FAM-labelled poly r(AG)8 RNA).

For quick reference, copied from above (series 1):
`R5C` — result for “normalised enrichment score”: -0.0296.
